Published values of several laboratories.
Parts stem from different laboratories: compare values within a part only.

Set 1
Target: TAR DNA-binding protein 43, full length, His tag (TARDBP, Homo sapiens, UniProt Q13148, residues 1-414)
Method: RNA Bind-n-Seq
Form: RNA
Sample: in vitro
Tested at: 20 nM
Setting: 6-mer, flanks averaged, single round
Added: 150 mM KCl
Relative to: input library
Direction: higher = stronger binding
Endpoint: 6-mer enrichment (R)
ACUUAG: 0.633
UAACGG: 0.955
UUCUGU: 0.609
CGGGAC: 2.09
GCACCA: 0.816
AAUGAC: 0.666
AUCCCA: 0.591
UAUUUU: 0.731
UAUCAG: 0.64
GCAAGG: 2.04
UGGAGA: 1.47
UACCGG: 0.953
CAGUAA: 0.646
GCCCGU: 0.738
CUCUAG: 0.607
CCCCAA: 0.666

Set 2
Target: Histone acetyltransferase KAT6A, both winged helices, GST fusion (KAT6A, Homo sapiens, UniProt Q92794, residues 1-181)
Method: protein binding microarray
Form: double-stranded DNA, one strand shown
Sample: in vitro
Tested at: not given
Setting: 8-mer, flanks averaged, mean of 2 arrays, mostly near background
Relative to: not given
Direction: higher = stronger binding
Endpoint: E-score
Construct (chain): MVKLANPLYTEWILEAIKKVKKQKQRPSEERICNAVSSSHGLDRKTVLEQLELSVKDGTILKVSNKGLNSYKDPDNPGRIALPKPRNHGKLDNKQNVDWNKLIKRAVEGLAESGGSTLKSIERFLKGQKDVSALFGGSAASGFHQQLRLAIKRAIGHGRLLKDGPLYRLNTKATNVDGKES
AATACCGG: 0.106
ACCACCAT: -0.0696
AATTCTAG: -0.161
ACGAGCAA: -0.057
CGATAGCC: 0.137
GATTATGA: -0.127
AATCGTGG: -0.177
AAATACGT: -0.0951
ACCAACGC: 0.108
ATTACAAT: -0.0255
GTGGCGGA: 0.075
GAAACTAC: -0.0101
TATTCGAA: -0.104
CACGGGCA: 0.226
GACAATCA: -0.16
ACGGATGC: 0.205
TCCCGGGA: 0.318
CCTGGCAG: -0.113
CTTACAAC: -0.119
GGCCTCGA: -0.0625
CCCCGAAC: 0.0315

Set 3
Target: RNA binding protein fox-1 homolog 2, RRM domain, GST-SBP tag (RBFOX2, Homo sapiens, UniProt O43251-10, residues 100-194)
Method: RNA Bind-n-Seq
Form: RNA
Sample: in vitro
Tested at: 365 nM
Setting: natural RNA segment, single round, ends assumed
Relative to: no-protein control
Direction: higher = stronger binding
Endpoint: RBNS enrichment (R)
Target sequence (chain): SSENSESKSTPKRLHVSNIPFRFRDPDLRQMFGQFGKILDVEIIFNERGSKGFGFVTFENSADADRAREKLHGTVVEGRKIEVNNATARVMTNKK
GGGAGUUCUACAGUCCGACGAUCCUUGCUCCCGAGUUGGGGGGAGGGGGUGUGGCAACGUGCCCCCCGCAGAGGCCACGCAUGUUUGACCAAAGCCCUCAUUGUGGUCCGAGGACAGCCUUUUCCCCAGGCCUUGGAAUUCUCGGGUGCCAA: 6.69
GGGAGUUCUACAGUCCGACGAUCCUUUUACAUUCCCUUGCUCCGUUACCUAACGACUUAAACCAGUUCCUUGCUUCCCCCAUCCCUACACAUUGUUCCUAAGUCUGAUUUUACCUCCCCAAUACCAGCCAGUAUGGAAUUCUCGGGUGCCAA: 1.47
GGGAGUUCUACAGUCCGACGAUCGGAGCUGCCUUCAUUCAGGCGGGUAGCUGCACUGGGCAUGGGGUGGUGGUGGGAGCUUACCGCCACCUAUUCAAGCUCUCAGCUACUCCUGAAACGGGCAGAGAUGAUGAUGGAAUUCUCGGGUGCCAA: 0.776
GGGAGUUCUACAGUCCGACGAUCACUGAAUAUUUUCUAUAAUAUGGCCUUACCUGCACCCUGCGGUGUGGAUUUGGGCUGCCUUGGAAGUGCCUUUAUCUGCCUCUUCUGUGACAUUUUGAGGUCUGCUUAGCUGGAAUUCUCGGGUGCCAA: 0.292
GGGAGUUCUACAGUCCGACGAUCAGUGACUGCGGUCACCCCUUUAGUUCUCUGGGUGUAGACCACACCACCUCCCACUGGGCACCCCCCAACACGGUGUCCUGCCACCCAGCGCCUGGCUCCAGGAAAACACGUGGAAUUCUCGGGUGCCAA: 0.451
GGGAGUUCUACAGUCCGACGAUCGGAGGCUACUGGAUGUAAGCUGUGCAGACCUGCUUCCCUCAGCAUUAAAUGUCUUCUCUUGAGCUGCAACUCCCAACUGACUCUGUGUAACCAAGGCUAGCUCUUUGUGUUGGAAUUCUCGGGUGCCAA: 0.67
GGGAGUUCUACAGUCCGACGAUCAUGCCAGCUGCCGUUGGAGACGCAAAGCCAAGCAAGGGUCAGGAGGGAAGCUGGCCCGGCUGACUGGAGAAUGGGAACCCCAGGACUCUCCACUCAUCUCGAAGGGUUGUUGGAAUUCUCGGGUGCCAA: 0.428
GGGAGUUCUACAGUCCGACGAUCCUGAACCAGAAUUACAUGUUAAUGAACAGUGUACCUUUUAACAGUGUAAAUCACGGAAUAUCCGUGAAGGGAUUUCUUAAUUUAUUUUUUACCGGUUGAUUGAAAUAUCAUGGAAUUCUCGGGUGCCAA: 0.449
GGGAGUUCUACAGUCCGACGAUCAAUGUAAACCGCCUCCACGUGGCGGCAGACUUCCUAAGGCCCCAGCUCGCUGGCCUCGCGCUGGGCGGCUGGGAAUUCCACCUGAGAACAAGUCCCGCAAACCGGGGACGUGGAAUUCUCGGGUGCCAA: 0.187
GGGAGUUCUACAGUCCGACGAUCCUCUCAGAAACAGGGCUCAGUACAGAACUUCCACAGCUGAUCAGCCUCCCUUGCAGGUUUGCCAAGUAUCUGCUUCCUGUGGAAGCAAGACCAAAAGGAAACCAACCGAGUGGAAUUCUCGGGUGCCAA: 0.264
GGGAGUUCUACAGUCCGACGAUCGUGUCACCCUCUACCAUCUGUAAACAACUGGGUGCCUUCCCCGACCACACCCCAAUGCCUUCCCAGCUUGGAAGCCAAGGCAGCUGAUGAAGGGAGCUCAGGAGAGCCGUUGGAAUUCUCGGGUGCCAA: 0.778
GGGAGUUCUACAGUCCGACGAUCGGGAGGGAUGGGACUCACUCAGCCCUGUGAAUGUGUUCUAUGGCUGAGCAACAUCCCUAGCCUUCAGAAUAGAAUUUUUGAUGUUGGAAAUCCUGUAUUUAAAGGAAACCUGGAAUUCUCGGGUGCCAA: 0.875

Set 4
Target: Sal-like protein 4, full length isoform B (SALL4, Homo sapiens, UniProt Q9UJQ4-2, residues 1-616)
Method: universal PBM
Form: double-stranded DNA, one strand shown
Sample: in vitro
Tested at: not given
Setting: 8-mer, flanks averaged, mean of replicates
Direction: higher = stronger binding
Endpoint: E-score
Construct (chain): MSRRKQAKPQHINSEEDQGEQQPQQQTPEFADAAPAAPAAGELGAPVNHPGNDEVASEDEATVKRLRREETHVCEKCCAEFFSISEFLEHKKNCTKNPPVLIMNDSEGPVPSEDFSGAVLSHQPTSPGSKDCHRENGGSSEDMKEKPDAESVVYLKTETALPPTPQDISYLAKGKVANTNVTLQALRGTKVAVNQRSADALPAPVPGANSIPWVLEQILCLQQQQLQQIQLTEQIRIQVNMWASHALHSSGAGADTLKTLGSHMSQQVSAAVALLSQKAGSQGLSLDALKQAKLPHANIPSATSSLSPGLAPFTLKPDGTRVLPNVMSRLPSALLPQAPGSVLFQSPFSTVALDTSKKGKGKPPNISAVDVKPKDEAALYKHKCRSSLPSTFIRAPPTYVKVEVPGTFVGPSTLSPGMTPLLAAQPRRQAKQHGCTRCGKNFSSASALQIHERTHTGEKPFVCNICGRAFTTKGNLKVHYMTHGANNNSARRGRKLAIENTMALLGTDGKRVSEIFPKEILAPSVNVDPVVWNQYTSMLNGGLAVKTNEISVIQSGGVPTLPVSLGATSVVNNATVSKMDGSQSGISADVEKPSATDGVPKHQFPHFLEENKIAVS
TGATGCAA: 0.105
ACGACCTC: -0.131
ATCGCGTG: -0.0948
GCATCAAA: 0.161
ATCCTGAC: -0.104
ATCGGCCG: -0.24
ACCATAAG: 0.202
ACATGATG: 0.11
CGATGGAC: -0.136
CAAGTTGG: -0.0592
AGTAAGCA: 0.113
ATTGGCGA: 0.131
ATGTAGCC: -0.00669
CATCTCAC: -0.112
GAGAATCC: -0.238
CCGGCCTC: -0.393
AGAATAGC: 0.0337
CTCTGTTC: -0.0411

Set 5
Target: Ras GTPase-activating protein-binding protein 1, RRM domain (G3BP1, Homo sapiens, UniProt Q13283)
Chain of UniProt Q13283 (whole entry, looked up): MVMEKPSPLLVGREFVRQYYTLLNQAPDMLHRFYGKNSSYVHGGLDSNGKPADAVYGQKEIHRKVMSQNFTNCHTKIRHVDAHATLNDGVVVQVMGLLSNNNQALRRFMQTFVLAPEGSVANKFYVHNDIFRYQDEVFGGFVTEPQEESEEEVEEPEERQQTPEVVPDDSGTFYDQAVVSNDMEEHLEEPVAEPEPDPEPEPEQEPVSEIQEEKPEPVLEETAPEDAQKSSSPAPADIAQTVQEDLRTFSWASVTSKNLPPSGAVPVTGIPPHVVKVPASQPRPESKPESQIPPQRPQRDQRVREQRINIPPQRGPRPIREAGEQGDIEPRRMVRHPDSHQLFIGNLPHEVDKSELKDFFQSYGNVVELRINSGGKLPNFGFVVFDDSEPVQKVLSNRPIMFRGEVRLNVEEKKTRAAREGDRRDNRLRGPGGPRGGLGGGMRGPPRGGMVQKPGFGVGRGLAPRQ
Method: RNA Bind-n-Seq
Form: RNA
Sample: in vitro
Tested at: 1 µM
Setting: whole 134-nt RNA, ends assumed
Added: 150 mM KCl
Relative to: input library
Direction: higher = stronger binding
Endpoint: log2 enrichment
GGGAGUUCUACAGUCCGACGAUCUGUCUGCGGACCUGGUUUCAGCGCUGGUGGGACUGCAGCCGGAGGUCAGCCCAGCAGAGACUGCAGCUGGAGAGGGCAGUGCAACACCACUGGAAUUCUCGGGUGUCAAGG: -0.448
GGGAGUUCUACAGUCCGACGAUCCCUCAAGUCCUGUGCUACACAUCGUAUGUACCGAAUCGGGUUGGUUGGUUGGAAAGUAUUAUGUUACGCCGUUCGGAUCUGCACUUCCAGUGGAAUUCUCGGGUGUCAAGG: -0.185
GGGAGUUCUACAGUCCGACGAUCAGUCCUGUGCUACACAUCGUAUGUACCGAAUCGGGAAAAAGGGAAAGGGAAAAAGGGAAAGUAUUAUGUUACGCCGUUCGGAUCUGCACUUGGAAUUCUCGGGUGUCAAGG: 0.315
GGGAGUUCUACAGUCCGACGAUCCUGUGCUACACAUCGUAUGUACCGAAUCGGGCCCCCCCGGGCCCCCCCGGCCCCCCCGGGGAAAGUAUUAUGUUACGCCGUUCGGAUCUGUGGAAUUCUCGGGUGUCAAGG: -0.766
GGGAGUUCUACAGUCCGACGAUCAAGUCCUGUGCUACACAUCGUAUGUACCGAAUCGGGCCCCGGGGCCCCGGCCCCGGAAAGUAUUAUGUUACGCCGUUCGGAUCUGCACUUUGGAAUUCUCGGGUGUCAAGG: -0.702
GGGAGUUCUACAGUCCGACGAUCACCAUGCAGGUGGGCAUCUUUGGGAAGUGAAACAAGGGGGGGAUAGGGAGGGGGGUAACACUUUGGGAACAGGUGGUCCCAGGUCGUUUCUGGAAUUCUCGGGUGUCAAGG: -0.56
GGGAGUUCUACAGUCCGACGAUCUGGGCAUUUUGGUGGAGACGAUGAGCACCAACGACACGAUCGUCAGUGGCACGCUGCCCCAGCGCAUGGCGUCCUGCCUGGAGGUGCUGGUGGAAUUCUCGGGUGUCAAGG: -0.587
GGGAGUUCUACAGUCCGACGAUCUCAAGUCCUGUGCUACACAUCGUAUGUACCGAAUCGGAAAGGGAAAGGGGAAAGGAAAGUAUUAUGUUACGCCGUUCGGAUCUGCACUUCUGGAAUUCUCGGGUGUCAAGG: -0.253
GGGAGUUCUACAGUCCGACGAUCUCCUGUGCUACACAUCGUAUGUACCGAAUCAAACCCCCCCAAAUUUUUAAACCCCCAAAAAAGUAUUAUGUUACGCCGUUCGGAUCUGCAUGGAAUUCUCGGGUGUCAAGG: -0.194
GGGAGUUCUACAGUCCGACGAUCAAGUCCUGUGCUACACAUCGUAUGUACCGAAUCGGCCCCCGGCCCCCGGCCCCCGGGAAAGUAUUAUGUUACGCCGUUCGGAUCUGCACUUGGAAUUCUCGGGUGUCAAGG: -0.68

A few entries again (set 3):
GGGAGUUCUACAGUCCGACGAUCGGAGCUGCCUUCAUUCAGGCGGGUAGCUGCACUGGGCAUGGGGUGGUGGUGGGAGCUUACCGCCACCUAUUCAAGCUCUCAGCUACUCCUGAAACGGGCAGAGAUGAUGAUGGAAUUCUCGGGUGCCAA: 0.776
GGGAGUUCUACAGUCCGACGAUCACUGAAUAUUUUCUAUAAUAUGGCCUUACCUGCACCCUGCGGUGUGGAUUUGGGCUGCCUUGGAAGUGCCUUUAUCUGCCUCUUCUGUGACAUUUUGAGGUCUGCUUAGCUGGAAUUCUCGGGUGCCAA: 0.292
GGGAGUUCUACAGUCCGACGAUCAGUGACUGCGGUCACCCCUUUAGUUCUCUGGGUGUAGACCACACCACCUCCCACUGGGCACCCCCCAACACGGUGUCCUGCCACCCAGCGCCUGGCUCCAGGAAAACACGUGGAAUUCUCGGGUGCCAA: 0.451
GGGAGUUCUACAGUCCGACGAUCGGAGGCUACUGGAUGUAAGCUGUGCAGACCUGCUUCCCUCAGCAUUAAAUGUCUUCUCUUGAGCUGCAACUCCCAACUGACUCUGUGUAACCAAGGCUAGCUCUUUGUGUUGGAAUUCUCGGGUGCCAA: 0.67
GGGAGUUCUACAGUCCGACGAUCAUGCCAGCUGCCGUUGGAGACGCAAAGCCAAGCAAGGGUCAGGAGGGAAGCUGGCCCGGCUGACUGGAGAAUGGGAACCCCAGGACUCUCCACUCAUCUCGAAGGGUUGUUGGAAUUCUCGGGUGCCAA: 0.428
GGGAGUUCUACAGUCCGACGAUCCUGAACCAGAAUUACAUGUUAAUGAACAGUGUACCUUUUAACAGUGUAAAUCACGGAAUAUCCGUGAAGGGAUUUCUUAAUUUAUUUUUUACCGGUUGAUUGAAAUAUCAUGGAAUUCUCGGGUGCCAA: 0.449
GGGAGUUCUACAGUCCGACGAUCAAUGUAAACCGCCUCCACGUGGCGGCAGACUUCCUAAGGCCCCAGCUCGCUGGCCUCGCGCUGGGCGGCUGGGAAUUCCACCUGAGAACAAGUCCCGCAAACCGGGGACGUGGAAUUCUCGGGUGCCAA: 0.187
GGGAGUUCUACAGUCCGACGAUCCUCUCAGAAACAGGGCUCAGUACAGAACUUCCACAGCUGAUCAGCCUCCCUUGCAGGUUUGCCAAGUAUCUGCUUCCUGUGGAAGCAAGACCAAAAGGAAACCAACCGAGUGGAAUUCUCGGGUGCCAA: 0.264
